Results collected from several papers.
A part holds a random share of what one study measured.

Series 1
Target: RNA binding protein fox-1 homolog 2, RRM domain, GST-SBP tag (RBFOX2, Homo sapiens, UniProt O43251-10, residues 100-194)
Technique: RNA Bind-n-Seq
Form: RNA
Medium: in vitro
Tested at: 365 nM
Setting: natural RNA segment, single round, ends assumed
Baseline: no-protein control
Reading: higher = stronger binding
Construct (chain): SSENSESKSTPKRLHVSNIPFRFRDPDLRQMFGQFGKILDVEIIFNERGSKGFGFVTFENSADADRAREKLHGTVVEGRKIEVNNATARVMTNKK
Strand	RBNS enrichment (R)
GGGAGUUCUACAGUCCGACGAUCUAGAGGACUGUCUGGUAUCCAAGACGACUAGUGUAUGUCAGGUCCUCAAAUCACCAACAGCUUGUUACUACAACAAAUUGUUUUGAUUUUAGUGCCUGUUGAGGACUUGAUGGAAUUCUCGGGUGCCAA	0.46
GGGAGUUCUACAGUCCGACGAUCGAAUUGCGCCAGAUAGGUCAAUACCAAGCUUCUGAUUCCUCCUCACAUAUGAAAAGUGAAAGUUGUGAGUUGUUUUCCUCUUAUUUAAACAUUGGCCUAUUAUAAUCUGUUGGAAUUCUCGGGUGCCAA	0.571
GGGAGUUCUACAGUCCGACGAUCUGCCUGGACAGAUGGCUUGUCCCAAGGCCAGGACACACACUUUAAAAUCCAACAUUCACCUAAGCAAGUAAUUCUUAAAGAUCUUACAGAAACGCAGAGUCAAUCAGGUUUGGAAUUCUCGGGUGCCAA	0.376
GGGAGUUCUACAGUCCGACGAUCUUUGAAAUGAUCACAACACACUGUGCAGAAGUGGACAGAUGUUCCAUGGCGUUUGGUUCUCCUUCCUUCUCUCUCCUGCUCACUUCUCUGCCGCGCAACACAUCUCUCUGUGGAAUUCUCGGGUGCCAA	0.383
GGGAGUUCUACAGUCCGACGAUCCAAGUCCCUGCCGGGCUCCGCCUUUCCCCCACCCUGGCUCUCAGGGUGACGCCACCCACAGAGAUUUAAUGAGCGUGGGCCUGGACCUUCCCCAGAUGCUGCCAGGCAGCUGGAAUUCUCGGGUGCCAA	0.253
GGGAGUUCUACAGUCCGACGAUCACUAUAGGUAAUAACUCUUAGAGAAAUUAAUUUAAUAUUAGAAUUUCUAUUAUGAAUCAUGUGAAAGCAUGACAUUCGUUCACAAUAGCACUAUUUUAAAUAAAUUAUAAUGGAAUUCUCGGGUGCCAA	1.62
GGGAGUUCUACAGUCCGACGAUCGAUUCUGUUGCAUAGACUAGUCCUAUGGAAAAAACCAAGCUUCGUUAGAAUGUCUGCCUUACUGGUUUCCCCAGGGAAGGAAAAAUACACUUCCACCCUUUUUUCUAAGUUGGAAUUCUCGGGUGCCAA	0.287
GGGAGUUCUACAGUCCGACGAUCUUCUUUUCACUGUUGGUAUUUAUAGCACCUACCUUCAGAUUUUUCAGUAUGAUGUUUCUAUUUUCCAAUACUGGUUCCCUAACGGUCAACAUUUCUUCUCCCAACUAAAAUGGAAUUCUCGGGUGCCAA	1.02
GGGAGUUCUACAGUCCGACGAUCCCUUUAUUUGACCAGUUAAAAUGGGCAAAAGGUUCACAUGCUGUCACCUGAGCACAUGGUCUACUGCUUAAGGGCAUGGGGGAGGGGACCGCCCCUCUUGAGGAAGCAGAUGGAAUUCUCGGGUGCCAA	8.87
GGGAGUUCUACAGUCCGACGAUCCCCAUCACAGCAUUCCCAGGUCCUGGUACCCAGCCCUCAGUUGUCAUUUGGUUCAGAAUCAGUUCCCUUUCUCUGGGACCAAAUUUCCCUUCUCUAAACAUCCUACAGAGUGGAAUUCUCGGGUGCCAA	0.5
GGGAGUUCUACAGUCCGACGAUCAAUGUGUGGUGCUUUGGUGAGCAAACCCUCAGCAGUCCUGACCUUCGGGUGACCAGGUGCUUGUGACCUACAAGUCAGAGUCCUCUCUCACAGUCGGCCACUGGAUUUCCUGGAAUUCUCGGGUGCCAA	0.164
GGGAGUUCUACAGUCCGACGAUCUGAUCACUUUUGAACCUGCCCCUUAACCUUGACGAGGAUACAAAAGUGAAAGCAUCAUCCCCCAAAGGAUCACUGCACAGUCCUACUACAGUAUUUUUAAGUAGCCCUCUUGGAAUUCUCGGGUGCCAA	0.491

Series 2
Target: Fragile X messenger ribonucleoprotein 1, C-terminal low-complexity region (Fmr1, Mus musculus, UniProt P35922)
Technique: RNA Bind-n-Seq
Form: RNA
Medium: in vitro
Tested at: 200 nM
Setting: whole 134-nt RNA, ends assumed
With: 150 mM LiCl
Baseline: input library
Reading: higher = stronger binding
All molecules: 7-deaza-guanosine replaces G
Strand	log2 enrichment
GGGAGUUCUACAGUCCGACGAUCCUCAAGUCCUGUGCUACACAUCGUAUGUACCGAAUCGGAGGUUUUUGGUUUGGAAAGUAUUAUGUUACGCCGUUCGGAUCUGCACUUCCAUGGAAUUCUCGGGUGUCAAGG	-1.22
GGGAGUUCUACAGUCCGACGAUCGCAGGAAGUAAAAACAAAUGGAAAUGCUUCGGAUAGUGGCAGGGGUGGGGGUUGCUAAGGAAAGGGUGGGAUGGGAGUGGGUAAAGAAAAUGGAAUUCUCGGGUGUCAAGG	1.57
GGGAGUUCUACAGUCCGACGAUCCAAGUCCUGUGCUACACAUCGUAUGUACCGAAUCGGAAAAGGAAAAGGGAAAAGGGAAAGUAUUAUGUUACGCCGUUCGGAUCUGCACUUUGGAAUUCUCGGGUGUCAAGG	-1.06
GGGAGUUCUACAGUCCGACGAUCAAGUCCUGUGCUACACAUCGUAUGUACCGAAUCGGAAAAGGAAAAGGGGAAAAGGGAAAGUAUUAUGUUACGCCGUUCGGAUCUGCACUUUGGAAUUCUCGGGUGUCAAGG	-0.51
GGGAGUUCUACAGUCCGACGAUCUGGCCCUGGUGGCAUGCGGGGAGGAAGAGGUGGCCUCAUGGAUCGUGGUGGUCCCGGUGGAAUGUUCAGAGGUGGCCGUGGUGGAGCCAGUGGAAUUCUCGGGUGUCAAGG	-0.242
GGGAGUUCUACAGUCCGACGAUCUGGGAGGUGGAUUUUGUUUAUUUUUUUAGCUCAUUUCCAUGGGUGGGAAUUUUUUUUUAAUAUGUGUCAUGAAUAAAGUUGUUUUUGAAAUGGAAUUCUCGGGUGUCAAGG	0.392
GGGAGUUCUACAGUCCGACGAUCGUCCUGUGCUACACAUCGUAUGUACCGAAUCGGGGAAAAAAAGGGGAGGGGUUUGGGGAAAGUAUUAUGUUACGCCGUUCGGAUCUGCACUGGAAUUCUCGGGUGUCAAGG	-0.491
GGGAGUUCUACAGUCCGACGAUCUGGCCCUGGUGGCAUGCGGGGAGGAAGAGGUGGCCUCAUGGAUCGUGGUGGCCCCGGUGGAAUGUUCAGAGGUGGCCGUGGUGGAGACAGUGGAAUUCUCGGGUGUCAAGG	-0.633
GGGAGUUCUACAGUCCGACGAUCACCAUGCAGGUGGGCAUCUUUGGGAAGUGGGGCAAGGGGGGGAUAGGGAGCGGGGUAACACUUUGGGAACAGGUGGUCCCAGGUCGUUUCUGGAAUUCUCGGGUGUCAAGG	0.749
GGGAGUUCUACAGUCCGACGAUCCAAGUCCUGUGCUACACAUCGUAUGUACCGAAUCGGGGAAAGGGAAAGGAAAGGGGAAAGUAUUAUGUUACGCCGUUCGGAUCUGCACUUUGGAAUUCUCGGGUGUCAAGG	-0.885
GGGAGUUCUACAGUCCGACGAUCUCCUGUGCUACACAUCGUAUGUACCGAAUCGGAAAAAAAGGAAAAAAAGGAAAAAAAGGAAAGUAUUAUGUUACGCCGUUCGGAUCUGCAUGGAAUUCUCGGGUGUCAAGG	-0.592

Series 3
Target: Histone acetyltransferase KAT6A, winged helix 1, GST fusion (KAT6A, Homo sapiens, UniProt Q92794, residues 1-85)
Technique: protein binding microarray
Form: double-stranded DNA, one strand shown
Medium: in vitro
Tested at: not given
Setting: 8-mer, flanks averaged, mean of 2 arrays, mostly near background
Baseline: not given
Reading: higher = stronger binding
Construct (chain): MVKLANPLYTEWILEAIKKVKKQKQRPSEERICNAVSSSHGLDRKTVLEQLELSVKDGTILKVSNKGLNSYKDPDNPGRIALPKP
Strand	E-score
CATGGAGC	-0.0112
CTTACCTC	-0.272
ACACTCCG	-0.0935
GCGACCCA	0.0482
GTTCTTTA	-0.02
AGAAGCAT	-0.0712
CGGGAAAC	0.204
AGAAGTGC	-0.143
CGCCAGTA	0.117
GCCAAACC	-0.0385
ACGTAATG	-0.0509
ATGGACGA	-0.115
ATAAGCAT	-0.165
CTGGCGAC	0.0908
CTCCGCGA	0.0913
CCATAGCG	0.121
GAATGCGA	0.106
TGTACCAA	-0.0806
CGGACCAG	0.14
ACGGAACA	0.162
GCCCCCCC	-0.0726
ACGGTTCG	0.148
CCGTCCAA	0.188
GGTCTGTA	-0.0113
AAGCATAT	-0.17

Series 4
Target: Interferon regulatory factor 7, full length, phosphomimetic (IRF7, Homo sapiens, UniProt Q92985, residues 1-503, S471D/S472D/S475D/S476D/S477D/S483D/S484D/S487D)
Technique: protein-binding microarray
Form: double-stranded DNA, one strand shown
Medium: in vitro
Tested at: 2200 nM top
Setting: 60-bp whole probe
With: salmon DNA 0.4 mg/ml
Baseline: random background probes
Reading: higher = stronger binding
All sequences stand within: GCCTAGCAC … GTCTTGATTCGCTTGACGCTGCTG
Construct (chain): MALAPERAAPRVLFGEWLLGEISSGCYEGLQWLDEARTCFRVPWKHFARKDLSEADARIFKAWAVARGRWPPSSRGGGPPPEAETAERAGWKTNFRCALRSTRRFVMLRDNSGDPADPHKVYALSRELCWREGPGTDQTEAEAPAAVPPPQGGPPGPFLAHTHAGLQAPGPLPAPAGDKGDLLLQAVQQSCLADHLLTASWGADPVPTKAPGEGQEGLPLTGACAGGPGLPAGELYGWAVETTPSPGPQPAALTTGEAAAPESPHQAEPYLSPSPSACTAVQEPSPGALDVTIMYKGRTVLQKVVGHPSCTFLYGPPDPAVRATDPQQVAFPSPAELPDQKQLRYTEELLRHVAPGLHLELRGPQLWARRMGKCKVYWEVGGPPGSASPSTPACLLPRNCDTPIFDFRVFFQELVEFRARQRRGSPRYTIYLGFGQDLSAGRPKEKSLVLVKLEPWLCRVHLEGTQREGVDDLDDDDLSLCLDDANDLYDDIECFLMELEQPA
Strand	fitted relative affinity
GACTATTTCAGTATCGAGACGTGCTAG	1.05 z-score
GACGATCTCAGACTAGAGACGTGCTAG	-0.256 z-score
GACGGTCTCGGGTTTCGGGACGTGCTA	1.43 z-score
TTAGGTATCGGACTGGGTTAGTGCTAG	0.0237 z-score
TTAGGACTGGAGTTTCGGTTAGTGCTA	3.88 z-score
TTAGGACCGCTACTGCTTTAGTGCTAG	-0.0651 z-score
TGTCTTCCCCTCTCTTTCCAAGTGCTA	2.41 z-score
CCTCCTCTCTCTTTCCACTTGTGCTAG	3.73 z-score
GACGGTTTGCTTTTCCTGACGTGCTAG	2.09 z-score
GACGGTTTCGACACTAGGGACGTGCTA	2.39 z-score
CCTCCTTACTTTATGTAGGAGTGCTAG	1.28 z-score
AGAGCTATCACTATTCTAGGGTGCTAG	-0.224 z-score
TTAGGTCTCCTACTGCTTTTGTGCTAG	0.487 z-score
GACGGACTGGACTATCGGGTCGTGCTA	-0.137 z-score
TCAAGAAAAAGAAAAAAAACTGTGCTA	-2.18 z-score
GACGATTTCGGGACTGTAGACGTGCTA	1.31 z-score
CTCTTGTTCTCTCTGGCCCTGTGCTAG	1.61 z-score
CTAGGTATCGGTTTCGGTTAGTGCTAG	7.28 z-score
GATAATTTTTTTCTAAGTAAGTGCTAG	-0.226 z-score
TCACCTCTAGGTCTTCTACTGTGCTAG	1.04 z-score
